Experimental data collected from several papers.
Every numbered part comes from another study and shows a few of its results, in no order. “And” joins repeats or separate records; there may be more than shown.
UniProt P11802, sequence (whole entry, looked up): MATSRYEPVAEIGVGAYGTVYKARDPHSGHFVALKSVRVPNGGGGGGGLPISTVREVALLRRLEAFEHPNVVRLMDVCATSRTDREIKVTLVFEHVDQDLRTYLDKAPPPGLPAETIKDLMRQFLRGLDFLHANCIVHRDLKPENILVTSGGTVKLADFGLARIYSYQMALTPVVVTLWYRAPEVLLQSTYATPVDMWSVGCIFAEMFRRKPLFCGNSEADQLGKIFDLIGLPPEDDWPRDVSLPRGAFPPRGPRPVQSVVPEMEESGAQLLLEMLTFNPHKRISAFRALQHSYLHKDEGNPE
UniProt P35916, sequence (whole entry, looked up): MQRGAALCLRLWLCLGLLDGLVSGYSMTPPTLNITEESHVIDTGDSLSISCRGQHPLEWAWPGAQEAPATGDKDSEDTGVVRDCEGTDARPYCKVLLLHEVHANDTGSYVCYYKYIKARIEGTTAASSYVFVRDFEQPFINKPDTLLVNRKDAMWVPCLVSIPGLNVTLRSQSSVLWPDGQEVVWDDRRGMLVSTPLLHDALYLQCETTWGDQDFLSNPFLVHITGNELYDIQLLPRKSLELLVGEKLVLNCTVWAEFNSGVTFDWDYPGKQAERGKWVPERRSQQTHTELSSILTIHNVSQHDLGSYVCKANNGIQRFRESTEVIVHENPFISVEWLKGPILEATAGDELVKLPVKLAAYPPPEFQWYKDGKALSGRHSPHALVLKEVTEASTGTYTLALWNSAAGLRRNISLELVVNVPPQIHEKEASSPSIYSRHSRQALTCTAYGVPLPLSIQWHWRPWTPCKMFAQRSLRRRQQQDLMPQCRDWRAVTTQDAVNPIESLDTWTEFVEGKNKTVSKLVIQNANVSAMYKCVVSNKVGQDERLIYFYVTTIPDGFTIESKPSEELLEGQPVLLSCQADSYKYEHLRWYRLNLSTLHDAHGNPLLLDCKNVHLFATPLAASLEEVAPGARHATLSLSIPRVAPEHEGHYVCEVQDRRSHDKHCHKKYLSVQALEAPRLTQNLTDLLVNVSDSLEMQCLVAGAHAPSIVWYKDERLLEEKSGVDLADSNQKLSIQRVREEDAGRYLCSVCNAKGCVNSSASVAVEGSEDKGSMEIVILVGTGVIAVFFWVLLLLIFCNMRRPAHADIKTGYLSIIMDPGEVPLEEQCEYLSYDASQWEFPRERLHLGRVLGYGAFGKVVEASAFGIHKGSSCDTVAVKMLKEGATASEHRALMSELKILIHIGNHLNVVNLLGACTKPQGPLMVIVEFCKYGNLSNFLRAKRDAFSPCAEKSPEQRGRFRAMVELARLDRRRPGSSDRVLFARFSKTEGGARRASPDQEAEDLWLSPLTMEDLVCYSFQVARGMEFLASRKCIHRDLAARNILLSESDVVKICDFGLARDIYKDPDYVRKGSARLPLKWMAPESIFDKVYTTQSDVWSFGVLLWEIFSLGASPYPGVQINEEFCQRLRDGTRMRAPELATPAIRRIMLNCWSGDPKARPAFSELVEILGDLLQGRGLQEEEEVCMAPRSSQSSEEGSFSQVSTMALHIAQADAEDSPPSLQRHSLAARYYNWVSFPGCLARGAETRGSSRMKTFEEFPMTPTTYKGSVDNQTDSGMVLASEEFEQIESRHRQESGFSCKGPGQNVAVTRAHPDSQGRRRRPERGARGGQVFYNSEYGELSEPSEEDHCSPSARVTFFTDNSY
UniProt O75676, sequence (whole entry, looked up): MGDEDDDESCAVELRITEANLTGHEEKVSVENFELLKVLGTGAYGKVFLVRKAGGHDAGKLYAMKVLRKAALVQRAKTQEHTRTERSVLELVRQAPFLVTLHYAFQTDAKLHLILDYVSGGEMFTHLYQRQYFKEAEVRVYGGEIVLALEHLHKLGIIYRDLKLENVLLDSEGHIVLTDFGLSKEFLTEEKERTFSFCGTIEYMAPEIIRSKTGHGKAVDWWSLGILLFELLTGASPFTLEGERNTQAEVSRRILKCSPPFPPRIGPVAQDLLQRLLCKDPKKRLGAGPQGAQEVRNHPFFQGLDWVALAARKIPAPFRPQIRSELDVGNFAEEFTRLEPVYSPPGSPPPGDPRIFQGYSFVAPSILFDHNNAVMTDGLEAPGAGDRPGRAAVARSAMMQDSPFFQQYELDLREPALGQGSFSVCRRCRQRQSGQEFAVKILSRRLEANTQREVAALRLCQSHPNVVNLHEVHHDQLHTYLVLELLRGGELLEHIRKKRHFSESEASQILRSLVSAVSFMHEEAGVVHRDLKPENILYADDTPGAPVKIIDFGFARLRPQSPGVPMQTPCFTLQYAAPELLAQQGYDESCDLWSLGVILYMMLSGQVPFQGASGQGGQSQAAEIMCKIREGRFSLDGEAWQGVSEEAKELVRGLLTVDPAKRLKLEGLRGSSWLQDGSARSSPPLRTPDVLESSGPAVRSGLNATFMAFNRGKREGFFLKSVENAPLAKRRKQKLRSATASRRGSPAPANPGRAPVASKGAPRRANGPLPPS

Sample 1 — effect on: cell-free assay; technique: competition with immobilised ligand; concentration: 1 µM
Compound: CCC(=O)N[C@@H]1CC[C@H](C(=O)N(C)c2ccc(-c3nc4ccccc4o3)cc2)C1
| target | remaining binding |
| --- | --- |
| Cyclin-dependent kinase 4, with cyclin D3 (CDK4, Homo sapiens, UniProt P11802) | 100% |
| FGFR3 (Homo sapiens, UniProt P22607) | 100% |
| STK32A (Homo sapiens, UniProt Q8WU08) | 100% |
| TYRO3 (Homo sapiens, UniProt Q06418) | 82% |
| Ribosomal protein S6 kinase alpha-4, C-terminal kinase domain (RPS6KA4, Homo sapiens, UniProt O75676) | 100% |
| PAK1 (Homo sapiens, UniProt Q13153) | 82% |
| CAMKK2 (Homo sapiens, UniProt Q96RR4) | 100% |
| MAP3K5 (Homo sapiens, UniProt Q99683) | 100% |
| FLT4 (Homo sapiens, UniProt P35916) | 100% |
| EPHA1 (Homo sapiens, UniProt P21709) | 87% |

Sample 2 — cell line: mouse MPNST tumor cells; technique: high-content immunofluorescence imaging; refers to: nuclear SOX9; concentration: 10 µM; time: 12 h; setting: mean of 2 replicates; relative to: DMSO control; reading: higher = more nuclear SOX9
| SMILES | nuclear SOX9 intensity |
| --- | --- |
| CC(C)(C)NCC(O)c1cc(O)cc(O)c1 (centres unmarked) | 109 % of DMSO |
| CCC(C)n1ncn(-c2ccc(N3CCN(c4ccc(OCC5COC(Cn6cncn6)(c6ccc(Cl)cc6Cl)O5)cc4)CC3)cc2)c1=O (centres unmarked) | 135 % of DMSO |
| C[C@H](NC[C@H](O)CP(=O)(O)Cc1ccccc1)c1ccc(Cl)c(Cl)c1 | 95.8 % of DMSO |
| CCC(=O)N1CCOc2c(cc(-c3ccc(OC)c(OC)c3)cc2OC[C@H]2CCCN(C)C2)C1 | 129 % of DMSO and 164 % of DMSO |
| CC(=O)Nc1ccc(OCC(O)CNC(C)C)cc1 (centres unmarked) | 108 % of DMSO |
| C/C(=C(\CCOP(=O)(O)O)SC(=O)c1ccccc1)N(C=O)Cc1cnc(C)nc1N | 100 % of DMSO |
| CCC(C)(CN(C)C)OC(=O)c1ccccc1 (centres unmarked) | 145 % of DMSO |

Sample 3
SMILES: COc1cc(C(=O)N2CCC(N3CCN(C)CC3)CC2)ccc1Nc1ncc2c(n1)N(C)c1ccccc1C(=O)N2C
| target or system | test | system | conditions | inhibition [%] |
| --- | --- | --- | --- | --- |
| PIP5K1C mouse | KiNativ profiling | mouse brain lysate | 1 µM, ADP probe, ATP site | -2.5 |
| NEK9 (mouse) | probe labelling, KiNativ, refers to: DIkTLNIFLTK peptide, LYS2 site | brain tissue lysate (mouse) | 1 µM, together with: ATP acyl-phosphate probe | 0.4 |
| human PBMC | probe labeling, inhibitor, KiNativ profiling | cell lysate | concentration not given, ATP site, together with: ATP acyl-phosphate probe 1 µM | 22.4 |
| mouse PCTAIRE1/2/3 | probe labelling, KiNativ ATP probe | mouse brain lysate | 0.1 µM, LYS2 site DLkPQNLLINER | -4.6 |
| ILK (mouse) | probe labelling, KiNativ, refers to: WQGNDIVVkVLK peptide, LYS1 site | brain tissue lysate (mouse) | 1 µM, together with: ATP acyl-phosphate probe | 6.4 |

Sample 4 — action: inhibitor; concentration: concentration not given; setting: absolute value; together with: with minus without ssDNA
Target: DNA polymerase theta, helicase domain (POLQ, Homo sapiens, UniProt O75417)
UniProt O75417, sequence (whole entry, looked up): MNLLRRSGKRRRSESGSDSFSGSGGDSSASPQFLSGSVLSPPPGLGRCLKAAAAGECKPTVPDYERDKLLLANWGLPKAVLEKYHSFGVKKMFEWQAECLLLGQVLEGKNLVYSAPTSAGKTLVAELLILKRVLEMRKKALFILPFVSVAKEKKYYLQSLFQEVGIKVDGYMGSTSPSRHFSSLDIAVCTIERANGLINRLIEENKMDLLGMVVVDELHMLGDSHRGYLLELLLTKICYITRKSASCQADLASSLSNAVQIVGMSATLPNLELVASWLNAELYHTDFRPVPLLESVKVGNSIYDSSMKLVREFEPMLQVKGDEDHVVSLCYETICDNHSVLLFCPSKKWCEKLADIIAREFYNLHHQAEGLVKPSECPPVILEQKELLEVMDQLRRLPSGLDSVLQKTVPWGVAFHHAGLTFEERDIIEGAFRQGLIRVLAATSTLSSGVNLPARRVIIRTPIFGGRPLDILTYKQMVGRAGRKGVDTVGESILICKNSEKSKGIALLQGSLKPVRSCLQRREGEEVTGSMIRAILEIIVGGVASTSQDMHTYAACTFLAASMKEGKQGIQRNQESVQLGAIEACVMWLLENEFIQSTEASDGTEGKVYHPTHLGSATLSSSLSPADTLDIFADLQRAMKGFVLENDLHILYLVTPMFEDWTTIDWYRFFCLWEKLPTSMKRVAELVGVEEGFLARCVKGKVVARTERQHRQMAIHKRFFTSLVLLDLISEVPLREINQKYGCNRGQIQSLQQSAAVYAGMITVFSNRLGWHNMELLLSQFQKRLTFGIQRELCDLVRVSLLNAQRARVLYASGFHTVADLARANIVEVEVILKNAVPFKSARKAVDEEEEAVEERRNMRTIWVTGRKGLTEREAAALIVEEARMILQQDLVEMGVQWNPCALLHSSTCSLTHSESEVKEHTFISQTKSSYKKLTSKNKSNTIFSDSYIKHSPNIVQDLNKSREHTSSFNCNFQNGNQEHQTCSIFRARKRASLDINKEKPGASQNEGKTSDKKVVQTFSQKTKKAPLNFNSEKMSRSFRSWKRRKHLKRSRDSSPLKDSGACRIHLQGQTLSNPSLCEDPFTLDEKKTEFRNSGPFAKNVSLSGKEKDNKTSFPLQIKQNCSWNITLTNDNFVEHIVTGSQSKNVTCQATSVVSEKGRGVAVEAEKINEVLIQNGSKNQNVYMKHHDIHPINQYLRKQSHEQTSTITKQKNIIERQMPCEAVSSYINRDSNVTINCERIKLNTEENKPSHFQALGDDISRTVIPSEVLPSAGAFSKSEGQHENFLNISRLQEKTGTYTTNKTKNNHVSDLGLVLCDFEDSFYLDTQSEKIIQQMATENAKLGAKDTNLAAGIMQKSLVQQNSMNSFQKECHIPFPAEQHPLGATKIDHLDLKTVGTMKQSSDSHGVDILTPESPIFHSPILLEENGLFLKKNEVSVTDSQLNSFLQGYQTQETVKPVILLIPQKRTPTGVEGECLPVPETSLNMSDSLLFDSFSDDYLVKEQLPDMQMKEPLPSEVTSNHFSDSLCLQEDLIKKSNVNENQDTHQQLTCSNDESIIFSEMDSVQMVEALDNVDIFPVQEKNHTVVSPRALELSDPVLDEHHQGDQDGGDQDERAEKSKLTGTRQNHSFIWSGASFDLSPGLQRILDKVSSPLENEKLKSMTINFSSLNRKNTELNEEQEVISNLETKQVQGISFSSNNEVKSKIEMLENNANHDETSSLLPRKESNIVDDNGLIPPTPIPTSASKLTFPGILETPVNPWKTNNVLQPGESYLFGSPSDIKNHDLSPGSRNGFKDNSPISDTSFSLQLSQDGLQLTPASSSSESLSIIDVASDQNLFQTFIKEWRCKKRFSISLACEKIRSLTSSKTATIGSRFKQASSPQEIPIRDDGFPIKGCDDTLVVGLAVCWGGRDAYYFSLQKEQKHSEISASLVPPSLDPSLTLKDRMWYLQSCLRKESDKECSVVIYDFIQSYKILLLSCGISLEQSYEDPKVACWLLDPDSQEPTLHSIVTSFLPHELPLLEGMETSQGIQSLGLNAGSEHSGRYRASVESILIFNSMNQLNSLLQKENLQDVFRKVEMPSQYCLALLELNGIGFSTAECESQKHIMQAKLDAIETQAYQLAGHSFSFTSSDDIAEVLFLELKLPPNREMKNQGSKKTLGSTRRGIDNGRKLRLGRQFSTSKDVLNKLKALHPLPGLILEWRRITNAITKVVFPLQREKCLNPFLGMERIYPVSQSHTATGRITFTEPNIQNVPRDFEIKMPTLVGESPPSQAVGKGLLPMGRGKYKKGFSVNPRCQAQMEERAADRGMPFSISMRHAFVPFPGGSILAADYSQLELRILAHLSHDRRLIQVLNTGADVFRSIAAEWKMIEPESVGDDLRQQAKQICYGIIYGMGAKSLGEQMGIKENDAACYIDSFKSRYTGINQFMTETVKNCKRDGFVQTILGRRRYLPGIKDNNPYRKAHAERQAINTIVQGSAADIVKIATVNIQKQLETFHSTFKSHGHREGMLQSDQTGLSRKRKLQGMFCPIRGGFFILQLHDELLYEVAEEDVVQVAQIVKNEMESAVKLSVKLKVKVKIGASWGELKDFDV
| Structure (SMILES) | difference in remaining activity |
| --- | --- |
| CCC(C)(Oc1ccc(C2(c3ccc(OC(C)(CC)C(=O)O)cc3)CCCCC2)cc1)C(=O)O (centres unmarked) | 61.5% |
| O=C(O)C1=CC(=C(c2ccc(O)c(C(=O)O)c2)c2ccc(O)c(C(=O)O)c2)C=CC1=O | 5.17% |
| CC[N+](C)(CC)CCC[n+]1c(-c2ccccc2)c2cc(N)ccc2c2ccc(N)cc21 | 68.8% |
| Cc1c(Cl)cccc1NC(=O)CSc1ncc(S(=O)(=O)c2ccc(C(C)C)cc2)c(=O)[nH]1 | 22% |

Some of these lines once more (sample 2):
| SMILES | nuclear SOX9 intensity |
| --- | --- |
| C/C(=C(\CCOP(=O)(O)O)SC(=O)c1ccccc1)N(C=O)Cc1cnc(C)nc1N | 100 % of DMSO |
| CCC(C)(CN(C)C)OC(=O)c1ccccc1 (centres unmarked) | 145 % of DMSO |
